# Results collected from several papers.
# A part holds a random share of what one study measured.

# Block 1
# Target: RNA binding protein fox-1 homolog 2, RRM domain, GST-SBP tag (RBFOX2, Homo sapiens, UniProt O43251-10, residues 100-194)
# Technique: RNA Bind-n-Seq
# Molecule type: RNA
# Medium: in vitro
# Concentration: 365 nM
# Notes: natural RNA segment, single round, ends assumed
# Reference: no-protein control
# Direction: higher = stronger binding
# Shared flanks, not repeated: GGGAGUUCUACAGUCCGACGAUC … UGGAAUUCUCGGGUGCCAA
# Construct (chain): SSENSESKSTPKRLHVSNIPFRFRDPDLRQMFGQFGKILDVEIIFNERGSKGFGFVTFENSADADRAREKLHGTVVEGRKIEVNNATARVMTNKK
Oligonucleotide,RBNS enrichment (R)
CACACUCUAGUUGUUUUCCAUGAAAGGUAUACAAAUGAAGAAUUUUCUAGCAAAACAUGUUUUUAACCAUCAGUGCUCAAUUGCAUUUUCUUCCUUUCGCAGCCAGUCAG,0.456
UGUUCGAAGCUGUCUGGUAAUGCCCCCAUCUCUCCCCGGGUCCAGUGGAUUUUUUUAACUAUUAUUCAAAAGCAAAACUGAGUUUUGUUUUGUUUGGUUUUUUAAGAAGA,0.277
GGUGCCAUUCAAGUCCUAGGGUGGGCUUCCAGCUGCCUUAAUAGAAGUACUCAAGUCUUUUGGGUAGUGAGCUGGAAAGCCUACAGGAAAAGAGGGGUACCUGUUUUCAU,0.293
UUGAUUGAAAAUUUGGCAAAUUACAUUAUUUGUACUAGAAUUUGACCUAAAACACUUUUUAUGUUUGUUAAAAAUAUUUGCUUUUUAAAAUUUAGUUAAAAAUUGAAGUA,0.652
GGAUGACAUCGAACGUUUGGCCAGCCGCUUUCUACACCCUGAAGUGACUGAGGCUAUGGAAAAAGGGUUCUGCAAAUAGCAUUCUGGGAUUGUGGGGAGAAAUCCCAGGU,0.821
CUAACAUCCCUGCCUGGUAGCCAGACUAGCCCACUAAAGCUCCCCUGUAAAUGGGGGCUCCAUUAGUUCUGCUGCCGAGACUAAUAAAGAUUUGGUUGGCUCUAGCAGUA,0.385
UGUCUGCACUGAUUCAAAGAGGAUUUGUGGGAAAGAAAACUAAAGGCAUGGGUUUCGUCCAAAAAUCAUGAAUUUUUCUAAUUCUACUAUUUUACAACUUGCUGAGACAC,0.626
GCCUGGCCCUGGCUCCCUCCAACCAGCUGCUCCUGGGACACAGGUGCUCCUGCUUCGGCUCUGUUUCGGCUCACAGGUGUGCAUCACUGGGCUUGGAUUUGCAUUACAUU,1.23

# Block 2
# Cell line: HEK-293T
# Observed: pseudovirus infection
# Organism: VSV pseudotyped with SARS-CoV-2 spike
# Concentration: 10 µM
# Time: 16 h
# Reference: vehicle-treated
SMILES,GFP-positive cells [%]
NCCCNCCSP(=O)(O)O,77.7
Cc1ccc(C(=O)c2ccc(CC(=O)O)n2C)cc1,82.8
NC(=O)Cc1cccc(C(=O)c2ccccc2)c1N,84.5
CCOC(=O)c1ncn2c1CN(C)C(=O)c1cc(F)ccc1-2,69

# Block 3
# Target: Replicase polyprotein 1ab, nsp13 helicase (rep, Severe acute respiratory syndrome coronavirus 2, UniProt P0DTD1)
# Mode: inhibitor
# Concentration: 20 µM
SMILES,inhibition [%]
C=C(C)[C@@H]1CC=C(CO)CC1,0.9
C[C@@H](CN1CC(=O)NC(=O)C1)N1CC(=O)NC(=O)C1,-11.8
Oc1cc(O)c2c(c1)O[C@H](c1ccc(O)c(O)c1)[C@H](O)[C@H]2c1c(O)cc(O)c2c1O[C@H](c1ccc(O)c(O)c1)[C@H](O)C2,15.9
COc1cc2c3cc1Oc1cc(ccc1O)C[C@@H]1c4c(cc(OC)c(O)c4Oc4ccc(cc4)C[C@@H]3N(C)CC2)CC[N+]1(C)C,6.19
CC1(C)NC(=O)N(c2ccc([N+](=O)[O-])c(C(F)(F)F)c2)C1=O,-3.23
CC(C(=O)O)c1ccc(C(=O)c2cccs2)cc1 (centres unmarked),8.92
COc1cc2c(c(OC)c1OC)-c1c(cc3c(c1OC)OCO3)C[C@H](C)[C@H](C)C2,2.3
NC(=O)CC[C@@H]1NC(=O)[C@H](Cc2ccccc2)NC(=O)[C@H](Cc2ccc(O)cc2)NC(=O)[C@@H](N)CSSC[C@@H](C(=O)N2CCC[C@H]2C(=O)N[C@@H](CCCN=C(N)N)C(=O)NCC(N)=O)NC(=O)[C@H](CC(N)=O)NC1=O,-0.85
CC(C)[N+]1(C)[C@@H]2CC[C@H]1C[C@@H](OC(=O)C(CO)c1ccccc1)C2 (some centres unmarked),7.54
NC(CO)C(=O)NNCc1ccc(O)c(O)c1O (centres unmarked),30.9
CCSc1ccc2c(c1)N(CCCN1CCN(C)CC1)c1ccccc1S2,14.3
COc1cccc2c1C(=O)c1c(O)c3c(c(O)c1C2=O)C[C@@](O)(C(=O)CO)C[C@@H]3O[C@H]1C[C@H](N2CCO[C@H](OC)C2)[C@H](O)[C@H](C)O1,92.3
Cc1nc2cnc3ccc(C#Cc4cccnc4)cc3c2n1-c1ccc(C(C)(C)C#N)cc1,17.3
COc1ccc2c(c1)-c1nn(CCCN(C)C)c3ccc([N+](=O)[O-])c(c13)N2,37.4
N=C(N)NCCSSCCN=C(N)N,5.35
O=c1cc(N2CCOCC2)oc2c(-c3ccccc3)cccc12,8.95
NC(N)=Nc1ccc(Cl)cc1,4.71
CCCCCCCCCCCC1=C(O)C(=O)C=C(O)C1=O,-17.6
CN(C)CCCN1c2ccccc2Sc2ccc(Cl)cc21,14.4
CC(=O)S[C@@H]1CC2=CC(=O)CC[C@]2(C)[C@H]2CC[C@@]3(C)[C@@H](CC[C@@]34CCC(=O)O4)[C@H]12,3.3
O=C1C=CC[C@@H]2[C@H]3CCCN4CCC[C@@H](CN12)[C@@H]34,-2.53
CCCCOC(=O)c1ccc(N)cc1,-2.99
CC1c2ccccc2CN1CC1=NCCN1 (centres unmarked),2.79
COc1ccccc1OCC(O)CO (centres unmarked),1.07
NC(N)=NC(N)=Nc1cccc(Cl)c1,4.13

# Block 4
# Target: Replicase polyprotein 1ab, main protease (rep, Severe acute respiratory syndrome coronavirus 2, UniProt P0DTD1)
# Observed: enzyme activity
# Mode: inhibitor
# Concentration: 20 µM
# Notes: primary screen
Compound,inhibition [%]
O=C(O)C=C1NN(Cc2nc3cc(C(F)(F)F)ccc3s2)C(=O)c2ccccc21,31.1
CC1(C)C(/C=C/C=C/C=C/C=C2\N(CCCCS(=O)(=O)[O-])c3ccc4ccccc4c3C2(C)C)=[N+](CCCCS(=O)(=O)[O-])c2ccc3ccccc3c21.[Na+],65.5
NC[C@H](O)c1ccc(O)c(O)c1,54

# Block 5
# Target: Ras GTPase-activating protein-binding protein 1, full length (G3BP1, Homo sapiens, UniProt Q13283)
# Sequence of UniProt Q13283 (whole entry, looked up): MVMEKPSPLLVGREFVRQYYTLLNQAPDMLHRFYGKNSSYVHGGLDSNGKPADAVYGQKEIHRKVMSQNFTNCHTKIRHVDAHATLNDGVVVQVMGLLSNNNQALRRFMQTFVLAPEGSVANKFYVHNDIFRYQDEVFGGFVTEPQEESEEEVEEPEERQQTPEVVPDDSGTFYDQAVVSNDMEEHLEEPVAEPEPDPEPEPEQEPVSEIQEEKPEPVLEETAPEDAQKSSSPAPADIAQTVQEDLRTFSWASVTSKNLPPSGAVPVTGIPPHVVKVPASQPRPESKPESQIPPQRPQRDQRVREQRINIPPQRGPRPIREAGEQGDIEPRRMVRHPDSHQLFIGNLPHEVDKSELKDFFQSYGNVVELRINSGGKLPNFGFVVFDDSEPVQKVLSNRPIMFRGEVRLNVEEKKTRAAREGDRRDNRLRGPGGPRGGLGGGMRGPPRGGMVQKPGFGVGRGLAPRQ
# Technique: RNA Bind-n-Seq
# Molecule type: RNA
# Medium: in vitro
# Concentration: 200 nM
# Notes: whole 134-nt RNA, ends assumed
# Added: 150 mM KCl
# Reference: input library
# Direction: higher = stronger binding
# Shared flanks, not repeated: GGGAGUUCUACAGUCCGACGAUC … UGGAAUUCUCGGGUGUCAAGG
Oligonucleotide,log2 enrichment
UGGCCCUGGUGGCAUGCGGGGAGGAAGAGGUGGCCUCAUGGAUCGUGGUGGUCCCGGUGGGAUGUUCAGAGGUGGCCGUGGUGGAGACAG,0.278
UGGGAGGUGGAUUUUGUUUAUUUUUUUAGCUCAUUUCCAGGGGUGGGAAUUUUUUUUUACUAUGUGUCAUGAAUAAAGUUGUUUUUGAAA,0.115
AGUCCUGUGCUACACAUCGUAUGUACCGAAUCGGGUUUGGGUUUUUUUGGGUUUGGGAAAGUAUUAUGUUACGCCGUUCGGAUCUGCACU,-0.0705
UAACUUUAGAGGAGGAUCUGAUGGAUAUGGCAGUGGACGUGGAUUUGGGGAUGGCUAUAAUGGGCAUGGAGGAGGACCUGGAGGUGGCAA,0.326
CCUCAAGUCCUGUGCUACACAUCGUAUGUACCGAAUCGGAGGGAGGGGAGGGAAAGUAUUAUGUUACGCCGUUCGGAUCUGCACUUCCAG,1.08
UGGGAGGUGGAUUUUGUUUAUUUUUUUAGCUCAUUUCCAGGGGUGGGAAUUUUUUUUUAAUAGGUGUCAUGAAUAAAGUUGUUUUUGAAA,-0.0775
UCCUGUGCUACACAUCGUAUGUACCGAAUCGGGGUUUUUUGGUUUUUUGGUUUUUUGGGAAAGUAUUAUGUUACGCCGUUCGGAUCUGCA,-0.821
CUCAAGUCCUGUGCUACACAUCGUAUGUACCGAAUCGGGGCGGGGCGGGGCGGGAAAGUAUUAUGUUACGCCGUUCGGAUCUGCACUUCC,1.33

# Block 6
# Target: Interferon regulatory factor 7, full length, phosphomimetic (IRF7, Homo sapiens, UniProt Q92985, residues 1-503, S101K/S471D/S472D/S475D/S476D/S477D/S483D/S484D/S487D)
# Technique: protein-binding microarray
# Molecule type: double-stranded DNA, one strand shown
# Medium: in vitro
# Concentration: 250 nM
# Notes: 60-bp whole probe
# Added: salmon DNA 0.4 mg/ml
# Reference: random background probes
# Direction: higher = stronger binding
# Shared flanks, not repeated: GCCTAGCAC … GTCTTGATTCGCTTGACGCTGCTG
# Target sequence (chain): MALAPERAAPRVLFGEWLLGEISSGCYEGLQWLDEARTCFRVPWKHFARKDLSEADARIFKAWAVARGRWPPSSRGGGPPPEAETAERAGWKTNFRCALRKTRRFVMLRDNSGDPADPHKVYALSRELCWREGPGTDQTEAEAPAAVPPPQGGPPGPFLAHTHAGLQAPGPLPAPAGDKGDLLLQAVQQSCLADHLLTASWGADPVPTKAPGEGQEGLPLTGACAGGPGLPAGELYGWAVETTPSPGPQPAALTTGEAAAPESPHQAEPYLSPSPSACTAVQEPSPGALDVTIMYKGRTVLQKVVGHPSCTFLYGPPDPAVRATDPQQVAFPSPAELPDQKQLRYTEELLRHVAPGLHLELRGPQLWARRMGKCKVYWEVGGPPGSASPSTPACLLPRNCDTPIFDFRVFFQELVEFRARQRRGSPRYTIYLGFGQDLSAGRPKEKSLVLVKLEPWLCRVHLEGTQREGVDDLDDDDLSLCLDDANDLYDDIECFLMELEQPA
Oligonucleotide,log fluorescence [z-score]
TCATCTTATCCTATCAGACTGTGCTAG,0.967
TTAGGTTTCGACACTTGGTTAGTGCTA,3.29
TCATATATTCATATATAACTGTGCTAG,0.437
TTAGATTTCAGTATCGCTTAGTGCTAG,0.806
GACGGACTGCGGTATCGGGACGTGCTA,-0.506
CATTTATTTACTCTCTACATGTGCTAG,2.19
TCATGTCTGGGTCTTGGACTGTGCTAG,-0.31
CCGTGTTTCTCAAATGTTTTGGTGCTA,1.57

# A few entries again (block 5):
Oligonucleotide,log2 enrichment
CUCAAGUCCUGUGCUACACAUCGUAUGUACCGAAUCGGGGCGGGGCGGGGCGGGAAAGUAUUAUGUUACGCCGUUCGGAUCUGCACUUCC,1.33
UGGCCCUGGUGGCAUGCGGGGAGGAAGAGGUGGCCUCAUGGAUCGUGGUGGUCCCGGUGGGAUGUUCAGAGGUGGCCGUGGUGGAGACAG,0.278
UGGGAGGUGGAUUUUGUUUAUUUUUUUAGCUCAUUUCCAGGGGUGGGAAUUUUUUUUUAAUAGGUGUCAUGAAUAAAGUUGUUUUUGAAA,-0.0775
CCUCAAGUCCUGUGCUACACAUCGUAUGUACCGAAUCGGAGGGAGGGGAGGGAAAGUAUUAUGUUACGCCGUUCGGAUCUGCACUUCCAG,1.08
AGUCCUGUGCUACACAUCGUAUGUACCGAAUCGGGUUUGGGUUUUUUUGGGUUUGGGAAAGUAUUAUGUUACGCCGUUCGGAUCUGCACU,-0.0705
UGGGAGGUGGAUUUUGUUUAUUUUUUUAGCUCAUUUCCAGGGGUGGGAAUUUUUUUUUACUAUGUGUCAUGAAUAAAGUUGUUUUUGAAA,0.115
UCCUGUGCUACACAUCGUAUGUACCGAAUCGGGGUUUUUUGGUUUUUUGGUUUUUUGGGAAAGUAUUAUGUUACGCCGUUCGGAUCUGCA,-0.821
UAACUUUAGAGGAGGAUCUGAUGGAUAUGGCAGUGGACGUGGAUUUGGGGAUGGCUAUAAUGGGCAUGGAGGAGGACCUGGAGGUGGCAA,0.326
